Experimental data pooled from the literature.
BRD4 BD1: Bromodomain-containing protein 4, BD1 (BRD4, Homo sapiens, UniProt O60885)
BRD4 BD2: Bromodomain-containing protein 4, BD2 (BRD4, Homo sapiens, UniProt O60885)

SMILES	target	test	test system	conditions	scale	endpoint	value
Cc1sc2c(c1C)C(c1ccc(Cl)cc1)=N[C@@H](CC(=O)NCCN(C)CCCCNC(=O)CCCCOc1cccc3c1C(=O)N([C@H]1CCC(=O)NC1=O)C3=O)c1nnc(C)n1-2	Bromodomain-containing protein 4, short isoform (BRD4, Homo sapiens, UniProt O60885)	degrader, Western blot, measured: BRD4 short isoform	MV4-11	–	–	Dmax	78.4%
O=C1CCCN1c1cccc(NS(=O)(=O)c2c(F)cccc2F)c1	BRD4 BD1	thermal stability, DSF	–	–	–	ΔTm	0.04 °C
CC[C@H](C)[C@@H]1NC(=O)[C@H](Cc2ccc(O)cc2)NC(=O)[C@H](Cc2ccccc2)NC(=O)[C@H](C(C)C)NC(=O)[C@H](Cc2ccccc2)NC(=O)CSC[C@@H](C(=O)N[C@@H](Cc2c[nH]cn2)C(N)=O)NC(=O)[C@H](CC(N)=O)NC(=O)[C@H](Cc2c[nH]c3ccccc23)NC1=O	BRD4 BD1	thermal stability, DSF	–	200 µM	–	ΔTm	1.65 °C
CC(=O)N1c2ccc(-c3ccc(CNC(=O)c4cn5cc(-c6cnc(N)nc6)nc(N6CCOCC6)c5n4)cc3)cc2CC[C@@H]1C	BRD4 BD2	binding, competition with immobilised ligand	–	10 µM	–	remaining binding	0%
CC(C)C[C@@H]1NC(=O)[C@H](Cc2ccccc2)NC(=O)CSC[C@@H](C(=O)NCC(N)=O)NC(=O)[C@H](Cc2ccc(O)cc2)NC(=O)[C@H](C(C)C)NC(=O)[C@H](Cc2ccccc2)NC(=O)[C@H](Cc2ccc(O)cc2)NC(=O)[C@H](Cc2ccccc2)NC(=O)[C@H](CC(=O)O)NC(=O)[C@H](CC(N)=O)NC(=O)[C@H](CC(N)=O)NC(=O)[C@H](Cc2ccc(O)cc2)NC(=O)[C@H](C(C)C)NC(=O)[C@H](Cc2ccccc2)NC1=O	BRD4 BD1	thermal stability, DSF	–	200 µM	–	ΔTm	0.46 °C
Cn1cc(-c2cc(N3CCCCS3(=O)=O)ccc2N[C@H]2CC[C@H](C)CC2)c2cc[nH]c2c1=O (stereo in doubt)	BRD4 BD1	binding, competition with immobilised ligand	–	1 µM	–	remaining binding	0.05%
N=C(N)NCCC[C@@H]1NC(=O)[C@H](Cc2ccccc2)NC(=O)CSC[C@@H](C(=O)N[C@@H](CC(=O)O)C(N)=O)NC(=O)[C@H](CCCNC(=N)N)NC(=O)[C@H](Cc2c[nH]c3ccccc23)NC(=O)[C@H](Cc2ccc(O)cc2)NC(=O)[C@H](Cc2ccc(O)cc2)NC(=O)[C@H](Cc2ccccc2)NC1=O	BRD4 BD1	thermal stability, DSF	–	200 µM	–	ΔTm	-2.95 °C
COc1cc(-c2cn(C)c(=O)c3cnccc23)cc(OC)c1CN(C)C	BRD4 BD1	–	–	–	–	ΔTm	0.8 °C
CCOc1ccc(C(C)=O)cc1NC(=O)c1cccc(C(=O)O)c1	BRD4 BD1	binding, BROMOscan competition binding	–	–	relative to: Kd CBP over Kd BRD4 bromodomain 1	selectivity ratio	< 0.02
O=C1CCCN1c1cccc(NS(=O)(=O)c2cccc(Br)c2)c1	BRD4 BD1	thermal stability, DSF	–	–	–	ΔTm	-0.84 °C
CC[C@H](C)[C@@H]1NC(=O)[C@H](Cc2c[nH]c3ccccc23)NC(=O)[C@H](C)NC(=O)[C@H](Cc2ccc(O)cc2)NC(=O)CNC(=O)[C@H](Cc2ccccc2)N(C)C(=O)[C@H](C)N(C)C(=O)[C@H](Cc2ccc(O)cc2)NC(=O)[C@H](C(C)C)NC(=O)[C@H](CC(C)C)NC(=O)[C@H](Cc2ccccc2)NC(=O)CSC[C@@H](C(=O)NCC(N)=O)NC1=O	BRD4 BD1	thermal stability, DSF	–	50 µM	–	ΔTm	-0.02 °C
O=C1CCCN1c1cccc(NS(=O)(=O)c2ccc(F)c(Cl)c2)c1	BRD4 BD1	thermal stability, DSF	–	–	–	ΔTm	-0.21 °C
CCn1cc(-c2cccc(C(F)(F)F)c2)c2sc(C(=N)NC3CCS(=O)(=O)CC3)cc2c1=O	BRD4 BD2	–	–	1 µM	–	inhibition	-5.86%

Some of these lines once more:
SMILES	target	test	test system	conditions	scale	endpoint	value
CC[C@H](C)[C@@H]1NC(=O)[C@H](Cc2ccc(O)cc2)NC(=O)[C@H](Cc2ccccc2)NC(=O)[C@H](C(C)C)NC(=O)[C@H](Cc2ccccc2)NC(=O)CSC[C@@H](C(=O)N[C@@H](Cc2c[nH]cn2)C(N)=O)NC(=O)[C@H](CC(N)=O)NC(=O)[C@H](Cc2c[nH]c3ccccc23)NC1=O	BRD4 BD1	thermal stability, DSF	–	200 µM	–	ΔTm	1.65 °C
